Experimental data collected from several papers.
Each line is one published result; not all experiments were run side by side. ± gives the spread as reported.
U2AF2: U2AF2 148-342 (Homo sapiens, UniProt P26368)
Chain of UniProt P26368 (whole entry, looked up): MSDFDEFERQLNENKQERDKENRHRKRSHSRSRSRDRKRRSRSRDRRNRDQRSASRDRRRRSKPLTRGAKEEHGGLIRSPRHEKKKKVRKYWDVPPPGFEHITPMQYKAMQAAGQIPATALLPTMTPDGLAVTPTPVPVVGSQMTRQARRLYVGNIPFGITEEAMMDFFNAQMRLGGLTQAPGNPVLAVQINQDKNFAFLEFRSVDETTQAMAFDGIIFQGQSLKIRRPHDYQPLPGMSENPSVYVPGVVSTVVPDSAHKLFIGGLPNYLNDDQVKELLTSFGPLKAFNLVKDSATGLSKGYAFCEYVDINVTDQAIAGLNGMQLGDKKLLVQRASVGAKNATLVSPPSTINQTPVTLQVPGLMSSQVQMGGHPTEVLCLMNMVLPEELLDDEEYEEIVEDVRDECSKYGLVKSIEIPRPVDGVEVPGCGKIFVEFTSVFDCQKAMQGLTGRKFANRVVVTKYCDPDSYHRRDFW
B1: TARDBP 262-414 (Homo sapiens, UniProt Q13148); chain PKHNSNRQLERSGRFGGNPGGFGNQGGFGNSRGGGAGLGNNQGSNMGGGMNFGAFSINPAMMAAAQAALQSSWGMMGMLASQQNQSGPSGNNQNQGNMQREPNQAFGSGNNSYSGSNSGAAIGWGSASNAGSGSGFNGGFGSSMDSKSSGWGM
B2: ADRM1 265-388 (Homo sapiens, UniProt Q16186); chain SDLQSILATMNVPAGPAGGQQVDLASVLTPEIMAPILANADVQERLLPYLPSGESLPQTADEIQNTLTSPQFQQALGMFSAALASGQLGPLMCQFGLPAEAVEAANKGDVEAFAKAMQNNAKPE
B3: NRP1 (Arabidopsis thaliana); chain MVADKSKKSKIEEKGEEENLEQIDAELVLSIEKLQEIQDDLEKINEKASDEVLEVEQKYNVIRKPVYDKRNEVIQSIPGFWMTAFLSHPALGDLLTEEDQKIFKYLNSLEVEDAKDVKSGYSITFHFTSNPFFEDAKLTKTFTFLEEGTTKITATPIKWKEGKGLPNGVNHDDKKGNKRALPEESFFTWFTDAQHKEDAGDEIHDEVADIIKEDLWSNPLTYFNNDADEEDFDGDDDGDEEGEEDDDDEEEEDGEE
B4: human SCYL2; sequence looked up; chain MESMLNKLKSTVTKVTADVTSAVMGNPVTREFDVGRHIASGGNGLAWKIFNGTKKSTKQEVAVFVFDKKLIDKYQKFEKDQIIDSLKRGVQQLTRLRHPRLLTVQHPLEESRDCLAFCTEPVFASLANVLGNWENLPSPISPDIKDYKLYDVETKYGLLQVSEGLSFLHSSVKMVHGNITPENIILNKSGAWKIMGFDFCVSSTNPSEQEPKFPCKEWDPNLPSLCLPNPEYLAPEYILSVSCETASDMYSLGTVMYAVFNKGKPIFEVNKQDIYKSFSRQLDQLSRLGSSSLTNIPEEVREHVKLLLNVTPTVRPDADQMTKIPFFDDVGAVTLQYFDTLFQRDNLQKSQFFKGLPKVLPKLPKRVIVQRILPCLTSEFVNPDMVPFVLPNVLLIAEECTKEEYVKLILPELGPVFKQQEPIQILLIFLQKMDLLLTKTPPDEIKNSVLPMVYRALEAPSIQIQELCLNIIPTFANLIDYPSMKNALIPRIKNACLQTSSLAVRVNSLVCLGKILEYLDKWFVLDDILPFLQQIPSKEPAVLMGILGIYKCTFTHKKLGITKEQLAGKVLPHLIPLSIENNLNLNQFNSFISVIKEMLNRLESEHKTKLEQLHIMQEQQKSLDIGNQMNVSEEMKVTNIGNQQIDKVFNNIGADLLTGSESENKEDGLQNKHKRASLTLEEKQKLAKEQEQAQKLKSQQPLKPQVHTPVATVKQTKDLTDTLMDNMSSLTSLSVSTPKSSASSTFTSVPSMGIGMMFSTPTDNTKRNLTNGLNANMGFQTSGFNMPVNTNQNFYSSPSTVGVTKMTLGTPPTLPNFNALSVPPAGAKQTQQRPTDMSALNNLFGPQKPKVSMNQLSQQKPNQWLNQFVPPQGSPTMGSSVMGTQMNVIGQSAFGMQGNPFFNPQNFAQPPTTMTNSSSASNDLKDLFG
B5: CDC48A 1-190 (Arabidopsis thaliana, UniProt P54609); chain MSTPAESSDSKSKKDFSTAILERKKSPNRLVVDEAINDDNSVVSLHPATMEKLQLFRGDTILIKGKKRKDTVCIALADETCEEPKIRMNKVVRSNLRVRLGDVISVHQCPDVKYGKRVHILPVDDTVEGVTGNLFDAYLKPYFLEAYRPVRKGDLFLVRGGMRSVEFKVIETDPAEYCVVAPDTEIFCEG
B6: RPRD1B (Homo sapiens, UniProt Q9NQG5); chain MSSFSESALEKKLSELSNSQQSVQTLSLWLIHHRKHAGPIVSVWHRELRKAKSNRKLTFLYLANDVIQNSKRKGPEFTREFESVLVDAFSHVAREADEGCKKPLERLLNIWQERSVYGGEFIQQLKLSMEDSKSPPPKATEEKKSLKRTFQQIQEEEDDDYPGSYSPQDPSAGPLLTEELIKALQDLENAASGDATVRQKIASLPQEVQDVSLLEKITDKEAAERLSKTVDEACLLLAEYNGRLAAELEDRRQLARMLVEYTQNQKDVLSEKEKKLEEYKQKLARVTQVRKELKSHIQSLPDLSLLPNVTGGLAPLPSAGDLFSTD
B7: F10 factor Xa (Homo sapiens, UniProt P00742); light ANSFLEEMKKGHLERECMEETCSYEEAREVFEDSDKTNEFWNKYKDGDQCETSPCQNQGKCKDGLGEYTCTCLEGFEGKNCELFTRKLCSLDNGDCDQFCHEEQNSVVCSCARGYTLADNGKACIPTGPYPCGKQTLER; heavy IVGGQECKDGECPWQALLINEENEGFCGGTILSEFYILTAAHCLYQAKRFKVRVGDRNTEQEEGGEAVHEVEVVIKHNRFTKETYDFDIAVLRLKTPITFRMNVAPACLPERDWAESTLMTQKTGIVSGFGRTHEKGRQSTRLKMLEVPYVDRNSCKLSSSFIITQNMFCAGYDTKQEDACQGDSGGPHVTRFKDTYFVTGIVSWGEGCARKGKYGIYTKVTAFLKWIDRSMKTRGLPKAKSHAPEVITSSPLK
B8: AXIN1 383-506 (Homo sapiens, UniProt O15169-2); HiLyte488 label; sequence looked up; chain VEPQKFAEELIHRLEAVQRTREAEEKLEERLKRVRMEEEGEDGDPSSGPPGPCHKLPPAPAWHHFPPRCVDMGCAGLRDAHEENPESILDEHVQRVLRTPGRQSPGPGHRSPDSGHVAKMPVAL
B9: IL33 112-270 (UniProt O95760); sequence looked up; chain SITGISPITEYLASLSTYNDQSITFALEDESYEIYVEDLKKDEKKDKVLLSYYESQHPSNESGDGVDGKMLMVTLSPTKDFWLHANNKEHSVELHKCEKPLPDQAFFVLHNMHSNCVSFECKTDPGVFIGVKDNHLALIKVDSSENLCTENILFKLSET
B10: PVRIG ECD residues 41-172 S143T/V90L/A83G/G82H/S69N (Homo sapiens, UniProt Q6DKI7); chain LNVRQTPEVWVQVRMEATELSSFTIRCGFLGSGNISLVTVSWGGPNHGGGTTLALLHPERGIRQWAPARQARWETQSSISLILEGSGASSPCANTTFCCKFASFPEGTWEACGSLPPSSDPGLSAPPTPAPILRADL
B11: EFNB1 28-237 (Homo sapiens, UniProt P98172); sequence looked up; chain LAKNLEPVSWSSLNPKFLSGKGLVIYPKIGDKLDIICPRAEAGRPYEYYKLYLVRPEQAAACSTVLDPNVLVTCNRPEQEIRFTIKFQEFSPNYMGLEFKKHHDYYITSTSNGSLEGLENREGGVCRTRTMKIIMKVGQDPNAVTPEQLTTSRPSKEADNTVKMATQAPGSRGSLGDSDGKHETVNQEEKSGPGASGGSSGDPDGFFNSK
B12: ATG9 1-255 (Saccharomyces cerevisiae, UniProt Q12142); sequence looked up; chain MERDEYQLPNSHGKNTFLSRIFGLQSDEVNPSLNSQEMSNFPLPDIERGSSLLHSTNDSREDVDENDLRVPESDQGTSTEEEDEVDEEQVQAYAPQISDGLDGDHQLNSVTSKENVLETEKSNLERLVEGSTDDSVPKVGQLSSEEEEDNEFINNDGFDDDTPLFQKSKIHEFSSKKSNTIEDGKRPLFFRHILQNNRPQRDTQKLFTSSNAIHHDKDKSANNGPRNINGNQKHGTKYFGSATQPRFTGSPLNNT
Chain of UniProt Q92692 (whole entry, looked up): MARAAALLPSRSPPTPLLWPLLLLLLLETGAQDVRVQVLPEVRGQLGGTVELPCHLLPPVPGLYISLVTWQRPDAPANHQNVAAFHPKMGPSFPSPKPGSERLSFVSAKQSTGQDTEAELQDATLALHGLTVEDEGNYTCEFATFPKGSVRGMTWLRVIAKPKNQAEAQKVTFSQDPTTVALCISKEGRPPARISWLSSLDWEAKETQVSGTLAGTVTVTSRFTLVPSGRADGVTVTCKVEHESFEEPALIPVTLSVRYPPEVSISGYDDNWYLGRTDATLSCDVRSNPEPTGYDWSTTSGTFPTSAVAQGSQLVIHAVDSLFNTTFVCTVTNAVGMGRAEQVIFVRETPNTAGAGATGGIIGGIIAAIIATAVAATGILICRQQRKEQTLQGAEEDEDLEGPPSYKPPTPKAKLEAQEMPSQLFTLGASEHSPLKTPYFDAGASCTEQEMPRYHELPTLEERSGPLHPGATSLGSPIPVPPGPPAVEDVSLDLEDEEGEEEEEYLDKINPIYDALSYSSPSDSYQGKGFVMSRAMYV
Chain of UniProt Q71LX4 (whole entry, looked up): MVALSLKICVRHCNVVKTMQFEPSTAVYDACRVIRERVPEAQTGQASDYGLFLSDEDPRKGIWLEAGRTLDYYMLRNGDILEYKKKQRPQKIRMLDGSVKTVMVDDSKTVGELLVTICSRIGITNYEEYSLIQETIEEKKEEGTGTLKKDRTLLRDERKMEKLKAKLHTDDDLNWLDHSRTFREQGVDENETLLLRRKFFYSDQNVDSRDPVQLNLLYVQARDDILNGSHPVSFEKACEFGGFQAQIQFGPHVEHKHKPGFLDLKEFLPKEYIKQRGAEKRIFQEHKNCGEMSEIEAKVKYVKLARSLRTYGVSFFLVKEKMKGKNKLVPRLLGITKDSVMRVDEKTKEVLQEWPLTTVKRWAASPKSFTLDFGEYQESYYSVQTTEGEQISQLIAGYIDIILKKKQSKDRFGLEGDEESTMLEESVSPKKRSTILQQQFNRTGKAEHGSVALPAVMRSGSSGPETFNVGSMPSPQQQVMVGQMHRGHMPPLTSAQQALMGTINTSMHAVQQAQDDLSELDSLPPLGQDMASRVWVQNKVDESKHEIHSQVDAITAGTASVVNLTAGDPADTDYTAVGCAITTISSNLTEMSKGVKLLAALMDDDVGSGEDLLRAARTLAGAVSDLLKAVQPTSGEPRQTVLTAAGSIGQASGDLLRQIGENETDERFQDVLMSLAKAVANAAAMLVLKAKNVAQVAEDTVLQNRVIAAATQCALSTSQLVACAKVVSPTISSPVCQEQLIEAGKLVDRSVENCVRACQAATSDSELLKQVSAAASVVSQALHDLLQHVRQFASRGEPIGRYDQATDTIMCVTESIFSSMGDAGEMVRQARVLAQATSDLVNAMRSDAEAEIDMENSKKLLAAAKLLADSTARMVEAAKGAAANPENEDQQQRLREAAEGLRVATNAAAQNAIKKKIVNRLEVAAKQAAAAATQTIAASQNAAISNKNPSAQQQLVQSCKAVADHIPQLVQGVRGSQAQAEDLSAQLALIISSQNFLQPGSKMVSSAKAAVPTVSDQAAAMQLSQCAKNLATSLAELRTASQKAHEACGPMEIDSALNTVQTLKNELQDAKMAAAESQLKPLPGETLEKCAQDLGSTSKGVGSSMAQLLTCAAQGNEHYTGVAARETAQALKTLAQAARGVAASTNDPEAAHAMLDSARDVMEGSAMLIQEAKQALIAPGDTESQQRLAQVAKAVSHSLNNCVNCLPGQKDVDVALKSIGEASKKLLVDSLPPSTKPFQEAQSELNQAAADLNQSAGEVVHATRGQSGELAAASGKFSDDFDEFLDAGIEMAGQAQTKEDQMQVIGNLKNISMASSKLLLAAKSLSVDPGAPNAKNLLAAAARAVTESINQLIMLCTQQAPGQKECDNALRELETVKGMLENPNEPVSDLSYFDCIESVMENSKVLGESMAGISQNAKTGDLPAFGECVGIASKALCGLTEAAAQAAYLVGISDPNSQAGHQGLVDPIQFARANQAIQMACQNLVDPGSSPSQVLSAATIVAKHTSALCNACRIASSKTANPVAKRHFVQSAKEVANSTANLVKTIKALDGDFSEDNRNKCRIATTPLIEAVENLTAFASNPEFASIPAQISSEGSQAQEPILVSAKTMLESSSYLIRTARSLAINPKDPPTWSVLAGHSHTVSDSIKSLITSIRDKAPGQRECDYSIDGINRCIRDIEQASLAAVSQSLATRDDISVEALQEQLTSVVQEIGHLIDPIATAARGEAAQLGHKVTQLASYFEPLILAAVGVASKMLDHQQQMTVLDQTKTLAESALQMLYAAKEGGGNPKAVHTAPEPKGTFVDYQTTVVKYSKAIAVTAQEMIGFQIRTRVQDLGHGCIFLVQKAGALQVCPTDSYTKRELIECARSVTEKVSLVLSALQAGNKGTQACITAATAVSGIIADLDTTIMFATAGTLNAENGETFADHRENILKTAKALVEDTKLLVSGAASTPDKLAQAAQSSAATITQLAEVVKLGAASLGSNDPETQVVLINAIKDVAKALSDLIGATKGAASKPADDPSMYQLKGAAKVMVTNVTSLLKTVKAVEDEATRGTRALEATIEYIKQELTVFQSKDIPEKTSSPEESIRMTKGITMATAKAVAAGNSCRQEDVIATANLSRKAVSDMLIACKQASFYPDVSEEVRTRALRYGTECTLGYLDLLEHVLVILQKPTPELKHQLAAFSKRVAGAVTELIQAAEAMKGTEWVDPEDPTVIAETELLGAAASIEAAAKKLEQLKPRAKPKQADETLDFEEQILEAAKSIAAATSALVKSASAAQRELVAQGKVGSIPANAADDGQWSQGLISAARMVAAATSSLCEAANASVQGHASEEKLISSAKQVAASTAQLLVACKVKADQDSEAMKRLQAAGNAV
Chain of UniProt Q94JZ8 (whole entry, looked up): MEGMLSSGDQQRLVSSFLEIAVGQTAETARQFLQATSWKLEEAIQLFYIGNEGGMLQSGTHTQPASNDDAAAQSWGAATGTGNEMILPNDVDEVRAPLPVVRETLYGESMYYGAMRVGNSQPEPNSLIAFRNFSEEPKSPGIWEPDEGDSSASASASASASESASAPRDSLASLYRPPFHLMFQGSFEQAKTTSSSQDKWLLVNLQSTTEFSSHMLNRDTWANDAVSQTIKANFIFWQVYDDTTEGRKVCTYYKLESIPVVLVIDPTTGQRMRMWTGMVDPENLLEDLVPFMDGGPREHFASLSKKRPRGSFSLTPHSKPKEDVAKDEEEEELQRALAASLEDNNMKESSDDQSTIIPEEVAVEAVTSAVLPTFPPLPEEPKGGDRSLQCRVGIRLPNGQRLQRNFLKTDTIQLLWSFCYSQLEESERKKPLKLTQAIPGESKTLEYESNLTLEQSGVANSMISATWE
Chain of UniProt Q8IXW5 (whole entry, looked up): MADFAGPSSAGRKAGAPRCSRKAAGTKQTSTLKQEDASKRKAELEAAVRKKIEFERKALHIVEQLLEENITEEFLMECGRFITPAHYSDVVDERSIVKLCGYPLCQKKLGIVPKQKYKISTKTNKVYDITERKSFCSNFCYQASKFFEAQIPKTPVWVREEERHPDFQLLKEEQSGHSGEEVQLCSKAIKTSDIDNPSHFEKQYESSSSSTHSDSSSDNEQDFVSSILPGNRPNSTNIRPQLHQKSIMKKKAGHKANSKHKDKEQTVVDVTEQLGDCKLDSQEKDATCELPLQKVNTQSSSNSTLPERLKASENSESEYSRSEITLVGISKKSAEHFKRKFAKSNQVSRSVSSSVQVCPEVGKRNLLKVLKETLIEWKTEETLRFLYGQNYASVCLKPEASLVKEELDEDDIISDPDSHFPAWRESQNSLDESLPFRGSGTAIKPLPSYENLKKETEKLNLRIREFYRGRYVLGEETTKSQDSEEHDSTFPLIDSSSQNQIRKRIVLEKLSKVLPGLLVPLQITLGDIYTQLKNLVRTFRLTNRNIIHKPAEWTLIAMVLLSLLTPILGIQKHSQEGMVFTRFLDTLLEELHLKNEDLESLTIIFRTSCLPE
Chain of UniProt Q00535 (whole entry, looked up): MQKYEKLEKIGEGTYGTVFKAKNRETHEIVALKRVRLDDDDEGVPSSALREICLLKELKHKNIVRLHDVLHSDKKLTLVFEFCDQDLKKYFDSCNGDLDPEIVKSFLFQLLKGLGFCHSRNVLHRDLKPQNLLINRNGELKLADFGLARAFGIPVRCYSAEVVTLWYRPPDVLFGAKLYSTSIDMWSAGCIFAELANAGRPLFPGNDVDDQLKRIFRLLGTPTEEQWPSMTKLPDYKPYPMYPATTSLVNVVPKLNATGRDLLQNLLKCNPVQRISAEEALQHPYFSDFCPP
Chain of UniProt Q5BJF2 (whole entry, looked up): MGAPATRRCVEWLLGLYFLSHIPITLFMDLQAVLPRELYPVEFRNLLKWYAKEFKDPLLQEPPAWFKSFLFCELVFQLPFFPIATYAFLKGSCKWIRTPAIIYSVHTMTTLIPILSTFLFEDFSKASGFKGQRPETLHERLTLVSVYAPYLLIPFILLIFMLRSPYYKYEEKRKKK

`B1 (TARDBP 262-414)` gave a Kd of 410 nM (HSPB8, fluorescein label (UniProt Q9UJY1); FP).
`KEAFWDRCLSVINLMSSKMGQINA` gave an activity change of 38% (Cyclin-dependent kinase 5, with p25 (CDK5, Homo sapiens, UniProt Q00535); phosphotransferase activity, radiometric; peptide; concentration not given, 10% DMSO, together with: histone substrate; relative to: p5-WT peptide).
`UUCCUAGAU (ssRNA)` has a Kd of 2620 nM (U2AF2; sequencing of bound RNA; RNA; motif only).
With `angiotensin 1-9 fragment` the Kd was 5950 nM (AGTR2 (Homo sapiens, UniProt P50052); SPR).
For `spindlin-1 (human)`, “log2 fold change” read -0.0223 (CYB5R4 knockout human cells; PP4 interaction, 3xFLAG-PP4C IP-MS; concentration not given; relative to: CYB5R4 KO over parental).
`MTLRRRGEKATISIQEHMAIDVCPGPIRPIKQISDYF (Doc2b 1-37 (Mus musculus, UniProt P70169); sequence looked up)` has a Kd of 1770 ± 160 nM (Unc13a MUN domain del1453-1531 (Rattus norvegicus); ITC).
With `ASCC3 C-degron` the Kd was 2000 ± 500 nM (APPBP2/ELOB/ELOC C54A/H89A (Homo sapiens); ITC).
`ARTKQTARKS (histone H3 1-10; K4me3)` has a Kd of 29700 ± 800 nM (ING1 163-234 M191A (Arabidopsis thaliana, UniProt Q9LIQ6); ITC; peptide).
`B2 (ADRM1 265-388)` has a Kd of 6.4 nM (UCHL5 (Homo sapiens); ITC).
`B3 (NRP1)` has a Kd of 12100 nM (CYCS, heme (Arabidopsis thaliana); SPR).
`B4 (human SCYL2)`: “log2 fold change” 0.81 (CYB5R4 knockout human cells; PP4 interaction, 3xFLAG-PP4C IP-MS; concentration not given; relative to: CYB5R4 KO over parental).
With `B5 (CDC48A 1-190)` the Kd was 9.1 ± 0.2 nM (PUX7 171-468 (Arabidopsis thaliana, UniProt Q94JZ8); BLI; 25 °C).
`B6 (RPRD1B)` gave a Kd of 478000 nM (RPAP2 (Homo sapiens, UniProt Q8IXW5); ITC; 25 °C).
With `B7 (F10 factor Xa)` the Kd was 0.3 ± 0.03 nM (factor Va R306Q/R506Q (Homo sapiens, UniProt P12259); thrombin generation, prothrombinase activity titration).
`B8 (AXIN1 383-506)` gave a Kd of 2.7 nM (Gsk3b 26-383 (Mus musculus, UniProt Q9WV60); fluorescence polarisation).
`B9 (IL33 112-270)` gave a Kd of 0.104 nM (IL1RL1 19-328 (Homo sapiens, UniProt Q01638-2); SPR).
For `GRGDLGRLKK (TGFB3 260-269; aminocaproic acid, FITC label)`, the Kd was 81 nM (integrin αVβ6 full length, on K562 cells (Homo sapiens); flow cytometry; peptide).
The Kd of `ENAH EVH1 domain (Homo sapiens)` is reported as 25900 nM (APBB1IP peptide (Homo sapiens); BLI).
The Kd of `ramucirumab, partial Asn deamidation` is reported as 0.23 nM (KDR (Homo sapiens, UniProt P35968); SPR).
For `YLPTITGVGHLWHPLC (engineered peptide)`, the Kd was 763 ± 12 nM (VPS29/VPS35 full length heterodimer (Homo sapiens); ITC; peptide).
`UBE2D2 (Homo sapiens, UniProt P62837)` gave a Kd of 271000 ± 70000 nM (NEDD4 HECT domain, Cy5 N-terminus (Homo sapiens); MST; together with: UbV 5 µM).
With `CTGCTCCGTCCGCCTTCGAGGAGAGGTCGGCATCTTCAAGTCAATCGGTCC (dsDNA; 5'-amino-C6 primer)` the Kd was 3.93 ± 1.87 nM (SUA7 full length assumed (Saccharomyces cerevisiae, UniProt P29055); array; double-stranded DNA, one strand shown; TFIIB alone).
`Notch ankyrin domain M115A/R107A (Drosophila)` gave a Kd of 23900 nM (dx (Drosophila melanogaster, UniProt Q23985); AUC).
With `AUAUUCUAU (ssRNA)` the Kd was 1920 nM (U2AF2; sequencing of bound RNA; RNA; motif only).
For `HEKHH (HTN1 residues 15-19)`, the Kd was 42000 nM (TMEM97 (Homo sapiens, UniProt Q5BJF2); SPR; peptide).
With `B10` the Kd was 77 nM (NECTIN2 32-350 (Homo sapiens, UniProt Q92692); SPR; designed binder).
For `B11 (EFNB1 28-237)`, the Kd was 8200 nM (EPHA2 residues 25-968, auto-phosphorylated (Homo sapiens, UniProt P29317); BLI; Fc fusion; apparent).
`KLLMIIHDRREFAKFEKEKMNAKWDTQENPIYKSAVTTVVNPKYEGK (ITGB1 752-798 G778Q (Homo sapiens, UniProt P05556-1); sequence looked up)` gave a Kd of 236000 nM (Tln2 312-408 (Mus musculus, UniProt Q71LX4); NMR titration).
`B12 (ATG9 1-255)` has a Kd of 1500 nM (Atg23 full-length, dimer (yeast, UniProt Q06671); BLI).

For quick reference, copied from above:
`UUCCUAGAU (ssRNA)` has a Kd of 2620 nM (U2AF2; sequencing of bound RNA; RNA; motif only).
For `GRGDLGRLKK (TGFB3 260-269; aminocaproic acid, FITC label)`, the Kd was 81 nM (integrin αVβ6 full length, on K562 cells (Homo sapiens); flow cytometry; peptide).
